Published values pooled from the literature.
Each numbered part is a random draw from the data of one study; scales do not carry over between parts.

Study 1 — method: RNA Bind-n-Seq; molecule type: RNA; medium: in vitro; concentration: 365 nM; baseline: no-protein control; direction: higher = stronger binding; measurement: RBNS enrichment (R)
Target: RNA binding protein fox-1 homolog 2, RRM domain, GST-SBP tag (RBFOX2, Homo sapiens, UniProt O43251-10, residues 100-194)
Notes: natural RNA segment, single round, ends assumed
Constant ends, left off below: GGGAGUUCUACAGUCCGACGAUC … UGGAAUUCUCGGGUGCCAA
Construct (chain): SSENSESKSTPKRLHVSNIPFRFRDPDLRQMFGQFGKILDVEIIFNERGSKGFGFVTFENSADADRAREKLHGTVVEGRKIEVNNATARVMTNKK
AUGGCUCUGCCUAGAGAUGUUCCUUGGGGUCUGUGAGGUUCUGUCAACUGCUAGUGCUAACGCUGUCCUGUACAACCUAACUCACUGGCAAGAAUGCAGUGUUGGGCCUU: 0.854
UUCAGGUAGCAUCUGAAAUUUUAAUGAAUGUAUAAUUGGCAUAUCAUGGAAAAUUAACCAGAAAGUAUCAGUUCUUAAAAGUUAUGCCUAGAAAUUAUGUAAAGCUAAAC: 5.84
CUCAGCUGAAUGCCUCCAAGUCCCUGGCCUGUAGCUUCUCCCAGGCUUAUCAUCCAAUCCCCUUUAACUGGGAUAAGAAACCAAAGGAGGAAAUAUUCUCUAUGGUAAUC: 0.252
UCGUCACAGCUCCAGUCUCUCACAUAGUCCUUGGAUUCUGUGCCAUCUGAGUAACUGCUCUUGGUGGCUUCCACUGCCCUGAGGCUUUGAGGGAAGCACCUAACCUCUGC: 0.221
UGCGACUUCUCCUGGUCCUCCCCAGAAGUAUCUGGUGUCAGCUGAAGACCAUGUGUCCCCCAAUACUUAGAUUUCACCGUACUUUCUGAUGGUGUUUUUAAAAGGCCAAG: 0.241
ACGCCAAGCUAAUUUUUGUAUUUUUUAGUAGAGAUGGGGUUUCACCAUCUUGGCCAGGCUGGUCUUGAAUUCCUGACCUCAGGUGAUCCACCCACCUUGGCCUCCCAAAG: 2.38
AAAGACCUAGAAUCCAGUCAUAGUUUCUCACUGAAUAGUUGGUAGGUUUCAGAAUAAACUCAGAGAAAACUUCAGGCUAAGAGACAGUGCUGCGUAGCUGUGUUGUUUCC: 0.681
AUGAUCUGUUUUUAGCUGGAUGGUCUUUAUUACAAAGUAUUAGAUUUUUCUUCUAUUUAACGGAAAACUUGACUUUGGUGAAUGUGCAUUACUUCCUUUUAUUUUGCUCU: 0.697
UUAGAGUAGUUGAAAUCUUUAGGAAUGAACUUCUGAGGGCCAAAAAAUGUGACUGACGGGAACAAUUCUUAAACUGAUUAACUAGCUGUAAUAUAGUUUUGUGAAUUUAU: 0.561
GGAGGAACAAAUUACAAGUGUACCCAAUAACUGAAAAUGUUUUAACUCACUCUCAUUUGUAAGCAGUCCACAUAGUAGACAAUGGGUUUUCCAAGCUGGGCAAGGUACAU: 0.442
UACCUUGGCACUCAGGUGCUGGUAUGUGCAUUCUUGCUUCCAAAGGAUUGACAGUAACAAAUUCUCAAAGCUUGACUGGAGCUGGCUGCAGCUCAAAACAGUGCCUCCUG: 0.503
UUAAGGCCAGACCAGGCUGAGUGUGACCCCUGAGGUAAACACUCCACUAAGCUGUGUCUUGUUCAUGCCCCCUGCUCAGUGAAAGGUGAGUCCCGAGACCAGUUGGGUAC: 1.28

Study 2 — method: RNA Bind-n-Seq; molecule type: RNA; medium: in vitro; concentration: not given; baseline: input RNA pool; direction: higher = stronger binding; measurement: bound/input enrichment
Target: RING finger protein unkempt homolog, zinc fingers 1-6, GST-SBP tag (UNK, Homo sapiens, UniProt Q9C0B0, residues 30-357)
UniProt Q9C0B0, sequence (30-357, looked up): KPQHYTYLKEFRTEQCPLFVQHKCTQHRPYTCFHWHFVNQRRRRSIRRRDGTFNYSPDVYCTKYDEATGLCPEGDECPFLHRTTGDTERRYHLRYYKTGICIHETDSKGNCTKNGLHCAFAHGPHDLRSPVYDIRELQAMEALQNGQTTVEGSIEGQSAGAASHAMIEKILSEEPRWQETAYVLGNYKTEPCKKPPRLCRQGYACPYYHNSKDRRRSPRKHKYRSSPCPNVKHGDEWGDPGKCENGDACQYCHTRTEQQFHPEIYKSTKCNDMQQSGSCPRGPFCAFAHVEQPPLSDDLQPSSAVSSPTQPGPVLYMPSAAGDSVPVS
Notes: RNA with constant flanks, human and mouse sites, ends assumed
Constant ends, left off below: GGGAGUUCUACAGUCCGACGAUC … CAACAGAGGAUUGAGCAUCA
GUGCUUCACAUUUGUAUGUGUGUAGACUGUAACUUUUUUUCAGUUCAUAUGCAGAACGUAUUUAGCCAUUACCCACGUGACACCACCGAAUAUAUUACUGAUUUAGAAGCAAAGAUUUCA: 2 ratio
UCCGACCUGCAGGGGUAGCGCGGCCUCGGCGCCGGAGACCCGCGCGCUGUCUGGGGCUGCGGUGGCGUGGGGAGGGCGCGGCCCCCGGACGCCCCGAGGAAGGGGCACCUCACCGCCCCC: 1.32 ratio
UCUGAUGGUGACCAUCAAGUUCCAGCUCCUUCAGGAAACAAAGCAGCUCUUUUGGAUCAAAUUAGAGAGGGUGCUCAGCUGAAAAAAGUGGAACAGAAUAGCCGGCCCGUGUCCUGCUCA: 0.42 ratio
CGUGAUGAGGAAGUAAGCUCUGCUGAUAUAAGUAGUUCAUCUGAGGUAAUAUCACAGCAUCUAGUAUCUUACAGAAAUAUUGAAGAGCUUCAACAACAAAAUCAACGUCUCUUAGUGGCC: 0.468 ratio
AAGAGUUUAUGCUGAGGGAAAAUCUGAAAAUGUGACAAUGUAGGAAAUUUUUUCUUCAACCUUUUUACUUGUUAAACUUAAUACUUUGUUUGACUUUUAGUCAGUCUUUCAGCUUUGCUC: 0.327 ratio
UAAGGUUAUAGGGCUCCCUGAGUUUGGGAGUGUGGAAGUACUACUUAACUGUCUGUCCUGCUUGGCUGUCGUUAUCGUUUUCUGGUGAUGUUGUGCUAACAAUAAGAAGUACACGGGUUU: 0.261 ratio
AGGUGGUAUGGAAGCCUGCAUGCGUGUUCAACUCUGUUCCUCCUCCCUCCUCCUCGGCCUCCCUCCUCCCCUCCUUCGCUCGCUCAACCUCUUUUGUUCAGUACGUGUAACUUGAAGCUA: 0.682 ratio
GUUAUGUUGCCCUGUCUUUCCUCUUUGUGCUGUCUUUGAUCUGUUUGCUUGGCUUAGUAUUACAAAAAAACAAGGACAAUAAUAUAUUCCAAGCUGGUCCCCAAGAUUCCGUUCAGGCUG: 0.673 ratio
CCAGUCAUGAAGAUGGAACCUCUGAAUAACCUCCAGGUGGCUGUGAAAAACAAUAUCGAUGUCUUCUACUUCAGCUGCCUCAUCCCACUCAAUGUGCUUUUUGUAGAAGAUGGCAAAAUG: 0.176 ratio
GCAGAGGGACAGAGAAGAGGAUCCCAGGGUGACAUUAAGCAGCAAAAUGGCCCACCAAGAAAACACAUUGUGGAGCGCAACACGGAGUUUUAUCACAUACCCACUCACAGUGAUGCCAGC: 0.401 ratio
AGGCCGUGCUGCUGGCGUCACUUUCUUUGAUAUGUAGCUUUUUCUUAAAGACUUUUGAAUGUUUAAUAAUUUUGUAAAUCAUGCUCUUUACACAGAGUACCACUUAUUUAAUAAGACGGG: 8.27 ratio

Study 3 — method: protein-binding microarray; molecule type: double-stranded DNA, one strand shown; medium: in vitro; concentration: 250 nM; notes: 60-bp whole probe; together with: salmon DNA 0.4 mg/ml; baseline: random background probes; direction: higher = stronger binding; measurement: log fluorescence; constant ends, left off below: GCCTAGCAC … GTCTTGATTCGCTTGACGCTGCTG
Target: Interferon regulatory factor 5, full length, phosphomimetic (IRF5, Homo sapiens, UniProt Q13568-2, residues 1-514, K96S/S451D/S453D/S456D/S462D)
TGAACTAGCGGGTCTTGCAGTGTGCTA: -0.154 z-score
TTAGTACTGAGTCTCGATTAGTGCTAG: 0.534 z-score
GACGGTATCGGGACTAGGGACGTGCTA: 1.17 z-score
TGAGGTTTCGACACTGGGTTAGTGCTA: 3.6 z-score
GACGCTATCGGTCTCGGGACGTGCTAG: 6 z-score
GACGGTATCGGTATCGGAACGTGCTAG: 7.47 z-score
TTAGGACTGGGGACTGGGGTAGTGCTA: -0.133 z-score
GGCGGTTTCGGACTGGGGACGTGCTAG: 4.06 z-score
TTAGAACGGAGTTTCGATTAGTGCTAG: 8.83 z-score
GACGGACTGGGGTTTCCGGACGTGCTA: -0.472 z-score
GACGGTATCCGTATCGGGACGTGCTAG: 0.819 z-score
TCAGTTCTCCCTTTCAGTTTGTGCTAG: 2.09 z-score
GACGGACTGAGGTTTCGGGACGTGCTA: 1.5 z-score
TTAGGACTGGGTACCGGTTAGTGCTAG: -0.335 z-score
GACGGCTTCCTTTTCCTGACGTGCTAG: -0.162 z-score
TCATGTCTGCCTTTCAAACTGTGCTAG: 0.0897 z-score
GCCGATTTCAGTATCGAGACGTGCTAG: 4.29 z-score
GACGGATTGGACACTGGGGACGTGCTA: -0.241 z-score
GAGGGACTGCTTCTCCTGACGTGCTAG: -0.805 z-score
GCCGATTTCAGACTGGAGACGTGCTAG: 0.295 z-score
GCCGATCTCAGTCTCGAGACGTGCTAG: 0.0766 z-score
GACGATATCAGACTGGAGGCGTGCTAG: 0.422 z-score
GACGTTCTCCTTCTCCTGACGTGCTAG: 0.13 z-score

Study 4 — method: universal PBM; molecule type: double-stranded DNA, one strand shown; medium: in vitro; concentration: not given; direction: higher = stronger binding; measurement: E-score
Target: Sal-like protein 4, full length isoform B (SALL4, Homo sapiens, UniProt Q9UJQ4-2, residues 1-616)
Notes: 8-mer, flanks averaged, mean of replicates
TGACGGAA: -0.0147
CCTACTCC: -0.11
ATCTCAAG: 0.00237
ATCAAATC: 0.19
AAAGGGCT: -0.0143
ATGCGCAT: 0.302
AACGTCGG: -0.0524
ATTAGGAC: 0.151
GACGAGCA: -0.0145
GACTCGTA: 0.00715
CTCTGTCC: -0.18
ACATCAGT: -0.0895
CCAAGACC: -0.212
ACTGAGTG: -0.106
ACGCTTAG: -0.0086
AACTATCG: 0.0195
ATTCACCA: 0.137
AAGATTGT: 0.157
AGCCGACG: -0.266
CTGAGAGC: -0.185
ATCAATCC: 0.0534
GAGCACTC: -0.194
CCGTAAAG: -0.0364
CTTTTAAA: 0.199

Repeated from above (study 2):
UCUGAUGGUGACCAUCAAGUUCCAGCUCCUUCAGGAAACAAAGCAGCUCUUUUGGAUCAAAUUAGAGAGGGUGCUCAGCUGAAAAAAGUGGAACAGAAUAGCCGGCCCGUGUCCUGCUCA: 0.42 ratio
CGUGAUGAGGAAGUAAGCUCUGCUGAUAUAAGUAGUUCAUCUGAGGUAAUAUCACAGCAUCUAGUAUCUUACAGAAAUAUUGAAGAGCUUCAACAACAAAAUCAACGUCUCUUAGUGGCC: 0.468 ratio
AAGAGUUUAUGCUGAGGGAAAAUCUGAAAAUGUGACAAUGUAGGAAAUUUUUUCUUCAACCUUUUUACUUGUUAAACUUAAUACUUUGUUUGACUUUUAGUCAGUCUUUCAGCUUUGCUC: 0.327 ratio
UAAGGUUAUAGGGCUCCCUGAGUUUGGGAGUGUGGAAGUACUACUUAACUGUCUGUCCUGCUUGGCUGUCGUUAUCGUUUUCUGGUGAUGUUGUGCUAACAAUAAGAAGUACACGGGUUU: 0.261 ratio
AGGUGGUAUGGAAGCCUGCAUGCGUGUUCAACUCUGUUCCUCCUCCCUCCUCCUCGGCCUCCCUCCUCCCCUCCUUCGCUCGCUCAACCUCUUUUGUUCAGUACGUGUAACUUGAAGCUA: 0.682 ratio
GUUAUGUUGCCCUGUCUUUCCUCUUUGUGCUGUCUUUGAUCUGUUUGCUUGGCUUAGUAUUACAAAAAAACAAGGACAAUAAUAUAUUCCAAGCUGGUCCCCAAGAUUCCGUUCAGGCUG: 0.673 ratio
CCAGUCAUGAAGAUGGAACCUCUGAAUAACCUCCAGGUGGCUGUGAAAAACAAUAUCGAUGUCUUCUACUUCAGCUGCCUCAUCCCACUCAAUGUGCUUUUUGUAGAAGAUGGCAAAAUG: 0.176 ratio
